Assay results pooled from the literature.
Every numbered part comes from another study and shows a few of its results, in no order. Changes are numbered by the printed parent chain.

Block 1
Target: RNA binding protein fox-1 homolog 2, RRM domain, GST-SBP tag (RBFOX2, Homo sapiens, UniProt O43251-10, residues 100-194)
Technique: RNA Bind-n-Seq
Form: RNA
Medium: in vitro
Concentration: 365 nM
Setting: natural RNA segment, single round, ends assumed
Baseline: no-protein control
Reading: higher = stronger binding
Target sequence (chain): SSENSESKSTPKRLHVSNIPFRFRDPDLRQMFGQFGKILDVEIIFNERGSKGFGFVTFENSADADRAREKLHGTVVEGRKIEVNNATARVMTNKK
`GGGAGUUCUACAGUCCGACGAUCGCCAGGGAGAGGACUCAGAUUUCCUGGAGGCAAAGUCUAUCUCUGAAACUCCAUGAAGACUUUUGCAGCCAGUUCCCACCAAUAUGCCCCAGACGUGAGACAAACAAGGAUGGAAUUCUCGGGUGCCAA` — result for “RBNS enrichment (R)”: 0.474.
`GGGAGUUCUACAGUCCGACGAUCAUCAGUGGGGCAGUGUUACCAUAAACACGGUGUAUAUGUUGUUAAACCCUAUGAAGAGUAACAGUGUAGACCAGACUGCCUCUCUCAGAUAUGUGCCUGAUAUUUUGUGGUGGAAUUCUCGGGUGCCAA` — result for “RBNS enrichment (R)”: 0.677.
For `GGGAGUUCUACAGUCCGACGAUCUUCAAUGGAUUUUCCUCUUGAAAUGCUUUGUCUACUCAGUUAUAAAAUAUUCAGAUACAAGUUUUAUCUCAGGUGAAUACUCUUGUAUUGUUUUUGCUUUGGUGACAUGCUGGAAUUCUCGGGUGCCAA`, “RBNS enrichment (R)” read 0.397.
`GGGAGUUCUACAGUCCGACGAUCCAACACGAGAGUGGUACUGGUUUCAUGUGCGAGGACUUCCAUGGACUGAACAUGGAUGCCGGAGCAGAGCAUCAAUUCCUUCAUAGAUUCCAAGUCACUCCUCGAUGAAGUGGAAUUCUCGGGUGCCAA` — result for “RBNS enrichment (R)”: 0.663.
For `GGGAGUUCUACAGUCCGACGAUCUCUUUCCCAUUGUUCUGUUGCUCCACCUUAUUGUCUCAAGGCCGUAAUCUCAUCAGGUUGGGACAUUAAUCUUUUCAACUCCUUGUAAGAUUUCCCAGUUUGGUUUCUCUUGGAAUUCUCGGGUGCCAA`, “RBNS enrichment (R)” read 0.487.
For `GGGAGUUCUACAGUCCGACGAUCGAGCCUCGGCCUGGCUGGCCAGGACACACUGAAAAGCAGCCUUUUUCACCAUGGCAAACCUAAAUGCAGUCAGUCACAAACCAGCCUGGGGCCUUCCUGGCUUUGGGAGUUGGAAUUCUCGGGUGCCAA`, “RBNS enrichment (R)” read 0.378.
Under “RBNS enrichment (R)”, `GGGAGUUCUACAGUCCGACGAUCUUCCUUGUUUUAGAGGAAGGUACUGCCUUUUUGGACUUAGGGAUGUCAUGGGACCUCAGUAACGAGGACCCCUAAUUUAUAAAGUACCAGAAAUGUGGGGAAGAAAGCAAUGGAAUUCUCGGGUGCCAA` is recorded as 0.226.
`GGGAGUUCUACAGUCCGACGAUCAUACUCCCUGUGGGCAUUUUUAAAGAUGAUCAUUAAUCUAUAAGGAAUUUGCUAAGCUUUCUCUUGAAUUUGAGCCAGUGAGAAAAGCAGUCAGAAGAAUGUGAAGGAUGUGGAAUUCUCGGGUGCCAA`: “RBNS enrichment (R)” 0.469.
`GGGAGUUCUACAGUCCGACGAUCAGCUGCCCCCAGGGAGCUCUGCUGCCCUUGCUGGCCCUGCCCUUCCCACAGGUGAGCAGGGCUCCUGUCCACCAGCACACUCAGUUCUCUUCCCUGCAGUGUUUUCAUUUUGGAAUUCUCGGGUGCCAA`: “RBNS enrichment (R)” 0.488.
For `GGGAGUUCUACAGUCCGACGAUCCCAGGUCUUACAGCAUUUUAUAUAUCACAUCUUUACAGAAUAACAUGAUGGCAAUAUACAAGUGGUAUUGUUAGGUGGUUUAACUUAGAAUAAAAUGAGAAUUCUUCAGUUGGAAUUCUCGGGUGCCAA`, “RBNS enrichment (R)” read 0.868.
`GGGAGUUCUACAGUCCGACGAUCUGGCUGUCCUUUCCAGUGGCCUGGCUCCGCUGUGUGGAUGGGGAGAUCGGGGCCAGAGGCAGAACCCUGGUGAGGAAGCUCCAGUCCUGCUCUCUACCCAGCCCAUCUUGUGGAAUUCUCGGGUGCCAA` — result for “RBNS enrichment (R)”: 0.413.
For `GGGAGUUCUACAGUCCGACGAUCUCUCUCAGCAUCACAGAUGAAACUUAGCUUGAAUGGGUCAAUUCCACCUGUUUUUCUGUGCUCCAGCUGGGCAGUGGGCUCCCCAUGUAGAGCUGAGCCUCUCCACUUCAUGGAAUUCUCGGGUGCCAA`, “RBNS enrichment (R)” read 0.452.

Block 2
Target: CCND2, cyclin fold, Cln2 fusion (human)
Technique: yeast growth competition, sequencing
Medium: yeast
Setting: weak parent motif
Baseline: not given
Reading: higher = stronger binding
Starting sequence: RBL1 docking peptide (human); GSAKRRLFGEDPP
`GSAKERLFGEDPP [R5E]` — result for “normalised enrichment score”: 0.042.
`GSAGRRLFGEDPP [K4G]` — result for “normalised enrichment score”: 0.157.
`GSAKRRLFGEDIP [P12I]` — result for “normalised enrichment score”: 0.32.
For `GSAKRRLNGEDPP [F8N]`, “normalised enrichment score” read -0.00495.
`GSAKGRLFGEDPP [R5G]` — result for “normalised enrichment score”: 0.0403.
`GSAKRTLFGEDPP [R6T]`: “normalised enrichment score” -0.155.
For `GSAKRRLFIEDPP [G9I]`, “normalised enrichment score” read 0.424.
Under “normalised enrichment score”, `GSAKRRLFGEDPC [P13C]` is recorded as 0.152.
`GSRKRRLFGEDPP [A3R]`: “normalised enrichment score” 0.279.
`GSAKRRLFGYDPP [E10Y]` — result for “normalised enrichment score”: 0.143.
Under “normalised enrichment score”, `GSAKRRLTGEDPP [F8T]` is recorded as 0.171.
For `DSAKRRLFGEDPP [G1D]`, “normalised enrichment score” read 0.202.
`GSAKRRHFGEDPP [L7H]` — result for “normalised enrichment score”: 0.124.
`GSAKRRLCGEDPP [F8C]` — result for “normalised enrichment score”: 0.133.
`GSAKRRLFGFDPP [E10F]`: “normalised enrichment score” 0.201.
For `GSAKRRGFGEDPP [L7G]`, “normalised enrichment score” read 0.0882.
For `GSAKRMLFGEDPP [R6M]`, “normalised enrichment score” read -0.0352.
For `GSAKRDLFGEDPP [R6D]`, “normalised enrichment score” read -0.306.
`GSAYRRLFGEDPP [K4Y]` — result for “normalised enrichment score”: 0.284.
`GSAKRRLFGEDPL [P13L]` — result for “normalised enrichment score”: 0.837.
For `GSAKQRLFGEDPP [R5Q]`, “normalised enrichment score” read 0.14.
For `GSAKRRLFGEYPP [D11Y]`, “normalised enrichment score” read 0.387.
For `GSAKMRLFGEDPP [R5M]`, “normalised enrichment score” read 0.174.
Under “normalised enrichment score”, `GSAKRRLFPEDPP [G9P]` is recorded as 0.184.
For `GSAKRRLFGEDPD [P13D]`, “normalised enrichment score” read 0.441.

Block 3
Target: RING finger protein unkempt homolog, zinc fingers 1-6, GST-SBP tag (UNK, Homo sapiens, UniProt Q9C0B0, residues 30-357)
Sequence of UniProt Q9C0B0 (30-357, looked up): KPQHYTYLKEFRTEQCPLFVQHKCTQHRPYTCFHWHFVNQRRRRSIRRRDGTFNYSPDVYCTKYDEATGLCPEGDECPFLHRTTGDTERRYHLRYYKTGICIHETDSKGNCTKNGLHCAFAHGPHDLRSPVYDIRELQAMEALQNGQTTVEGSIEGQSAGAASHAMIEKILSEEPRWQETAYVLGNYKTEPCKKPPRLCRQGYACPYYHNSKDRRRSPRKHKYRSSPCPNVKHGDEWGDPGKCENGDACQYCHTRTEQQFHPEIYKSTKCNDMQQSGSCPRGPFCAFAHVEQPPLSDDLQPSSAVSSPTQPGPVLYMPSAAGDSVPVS
Technique: RNA Bind-n-Seq
Form: RNA
Medium: in vitro
Concentration: not given
Setting: RNA with constant flanks, ends assumed
Baseline: input RNA pool
Reading: higher = stronger binding
The bound/input enrichment of `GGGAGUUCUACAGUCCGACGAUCCUGAUUUGUUUUGUGAUUUUUAACUUAUGAGGCAAGAAAGGUCUUCCUUCAAUAUUGUCUCUCCGGGAAUCUCUCUCUCAGUGUUUGAACUUAACUUGUGCUUGAAAUUCUACAGUUUCACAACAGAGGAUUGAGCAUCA` is reported as 0.107 ratio.
The bound/input enrichment of `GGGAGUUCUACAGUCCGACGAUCGAAGCAAAUGUCCAUUUCCAAAGCAGCUGGCAUAUCAUCAGUACCACGGCUUUAUUCUUCUACCGUAAGUCUCCCCUCUUUACUGGGGAGAAAAAAAAUUCUCACUGGAGAAACCCUUAGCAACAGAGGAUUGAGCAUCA` is reported as 0.991 ratio.
The bound/input enrichment of `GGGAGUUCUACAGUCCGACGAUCCGCCCAGUGAAGGCAUCAAGGGAAGAUAGUGGUUUAUUUAGUCCUAUUCGAUCCUCUGCUUUCCGUCCUCUUGGAGGCUGUACUCCAGCUGAAUGUUUUUGCCAAACAGAUAUUGGUGGACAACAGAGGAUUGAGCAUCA` is reported as 0.857 ratio.
With `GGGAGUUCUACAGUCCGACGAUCGGUAUUUUCCAGUGAAGACUAUCGCCAAGAAUGCAUAUCAUUCUGCUUAUUUUAUUCCCGUGGAUAAAAAUUCAACGUAUAUUUAAGUGUAUUUUUGACAUCUGUGCUUGUCCAACACAGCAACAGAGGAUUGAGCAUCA` the bound/input enrichment was 0.212 ratio.
The bound/input enrichment of `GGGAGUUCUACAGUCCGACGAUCUUUUAAACUUCUUUUUUUUAAUUUAAUUUUUUCCUUUCAGGGGUAAAGUUUGCUUUACCAAACCGUGAUUGUAACAGAUUGAUCUGUUUUGGAUGUUGCUAUAGUGACAUGCAGUUCUAUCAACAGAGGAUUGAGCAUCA` is reported as 4.05 ratio.
The bound/input enrichment of `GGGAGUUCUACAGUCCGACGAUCGAGGUAGAUCAAGACCUCAUUCCACUGUUAGUGAAAGAAACGGAAGCAAGAUUUCCAGAUGCCGCAAGUGGAUAUGUUGAAGAAAUAAUUCAUUUGAAAAAUUACUAUGAUUUGAAUGUACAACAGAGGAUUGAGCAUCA` is reported as 0.297 ratio.
`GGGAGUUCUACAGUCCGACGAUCGCUCUUGCUUAUGGAAUCUAUAAACAAGACCUUCCUGCCUUAGAAGAAAAACCAAGAAAUGCCGUUUUUGUAGAUAUGGGACAUUCUGCCUAUCAAGUUUCUGUAUGUGCAUUUAAUAAACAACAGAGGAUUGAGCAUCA` has a bound/input enrichment of 0.459 ratio.
With `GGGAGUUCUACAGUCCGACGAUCCUCUCUGACUAUCAACGUGGACGAGUAGAAAAUGUAUGUAAACGACUCAAUCUCCAGCCUUCCGCUUAUCUUUGGCAAAGAAACCAGGAAGAUUUGCUCCGAGAGAUGAUAGCUUCUAAUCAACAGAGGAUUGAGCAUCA` the bound/input enrichment was 0.263 ratio.
`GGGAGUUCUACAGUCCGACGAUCUUAGAAUGUUACUUAGACCAAGUUUAGCUUUUAGAGUCCAGGUCUGGUUAAUUGCCAGGGCCGCAAAGAAUUGCAUGCACCAAUAUAAACAGGAGUCAAAAAUGCAUUAUUAAUCGAAGACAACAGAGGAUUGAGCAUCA` gave a bound/input enrichment of 1.65 ratio.
The bound/input enrichment of `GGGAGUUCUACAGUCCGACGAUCAUUCCGAUUAUGGACACCGGUGAAAACCCAGAGGUUCCCUUCCCCCGGGACAUGAUUGACUCCGAGGCCAAUUUUGAGAAGAUUGAAAAUGAACUGAAGGAAAUCAACACAAACCAGGAACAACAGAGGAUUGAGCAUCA` is reported as 0.11 ratio.
The bound/input enrichment of `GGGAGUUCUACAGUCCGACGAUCGAUUUAGUAAAUGAAAUUUGACCAAAUGGAAGAAUCAUGUUAGUUCUGACCUCAAUACUACCGUAACUUUUAGGCGUGGGUGUAGAAGUUUAUAGGUUUCUAUUGACAGUUAUUGUAAAUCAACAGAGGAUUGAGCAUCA` is reported as 1.94 ratio.

Block 4
Target: Homeobox protein Hox-B13, full length (HOXB13, Homo sapiens, UniProt Q92826, residues 1-284)
Sequence of UniProt Q92826 (whole entry, looked up): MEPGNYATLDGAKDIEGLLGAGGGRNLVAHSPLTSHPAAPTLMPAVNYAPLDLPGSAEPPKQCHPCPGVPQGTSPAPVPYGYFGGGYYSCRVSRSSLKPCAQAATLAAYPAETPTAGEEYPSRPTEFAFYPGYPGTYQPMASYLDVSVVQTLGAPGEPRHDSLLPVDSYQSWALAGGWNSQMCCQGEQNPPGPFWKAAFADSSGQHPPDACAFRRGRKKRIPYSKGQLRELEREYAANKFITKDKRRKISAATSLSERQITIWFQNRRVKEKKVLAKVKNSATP
Technique: protein-binding microarray
Form: hairpin DNA
Medium: in vitro
Concentration: not given
Setting: whole hairpin DNA, median over replicate spots
Baseline: not given
Reading: higher = stronger binding
`GAGGCCATTTTATTGGGGCCTCCTGGCCCCAATAAAATGGCCTCACACTC` gave a median fluorescence of 5100 a.u.
For `GAGGCCGTTTCATTGGGGCCTCCTGGCCCCAATGAAACGGCCTCACACTC (5mC at 11)`, the median fluorescence was 4440 a.u.
`GAGGCCGTCTTACGAGGGCCTCCTGGCCCTCGTAAGACGGCCTCACACTC` gave a median fluorescence of 4200 a.u.
With `GAGGCCGTCGTATTGGGGCCTCCTGGCCCCAATACGACGGCCTCACACTC (5mC at 35)` the median fluorescence was 4040 a.u.
For `GAGGCCGTTTTACCAGGGCCTCCTGGCCCTGGTAAAACGGCCTCACACTC`, the median fluorescence was 4160 a.u.
For `GAGGCCGTTCGATTGGGGCCTCCTGGCCCCAATCGAACGGCCTCACACTC (5mC at 10 34)`, the median fluorescence was 3950 a.u.
The median fluorescence of `GAGGCCGTTTTACGGGGGCCTCCTGGCCCCCGTAAAACGGCCTCACACTC (5mC at 31)` is reported as 5400 a.u.
The median fluorescence of `GAGGCCCGTTTACGAGGGCCTCCTGGCCCTCGTAAACGGGCCTCACACTC (5mC at 37)` is reported as 4770 a.u.
With `GAGGCCGCGTTATTGGGGCCTCCTGGCCCCAATAACGCGGCCTCACACTC (5mC at 8)` the median fluorescence was 4210 a.u.
With `GAGGCCGTTTTATTCGGGCCTCCTGGCCCGAATAAAACGGCCTCACACTC (5mC at 15 29)` the median fluorescence was 3880 a.u.
For `GAGGCCGTTTTACGCGGGCCTCCTGGCCCGCGTAAAACGGCCTCACACTC (5mC at 15 29)`, the median fluorescence was 4230 a.u.
With `GAGGCCGTTTTACGAGCGCCTCCTGGCGCTCGTAAAACGGCCTCACACTC` the median fluorescence was 5500 a.u.
The median fluorescence of `GAGGCCGCGTTACGAGGGCCTCCTGGCCCTCGTAACGCGGCCTCACACTC (5mC at 8 36)` is reported as 4610 a.u.
